Measured values gathered from unrelated publications.

CC(C)C[C@H](NC(=O)[C@H](C)NC(=O)[C@H](C)NC(=O)[C@H](C)NC(=O)[C@H](C)NC(=O)[C@@H](NC(=O)[C@H](CC(C)C)NC(=O)[C@H](CCCCN)NC(=O)[C@H](CCC(=O)O)NC(=O)[C@@H](NC(=O)[C@H](CO)NC(=O)CN)C(C)C)[C@@H](C)O)C(=O)N[C@@H](CCC(N)=O)C(=O)N[C@@H](CCCNC(=N)N)C(=O)N[C@@H](CC(C)C)C(=O)N[C@@H](CCCCN)C(=O)N[C@@H](CC(N)=O)C(=O)N[C@@H](CCC(=O)O)C(=O)N[C@@H](CCCNC(=N)N)C(=O)N[C@@H](Cc1c[nH]cn1)C(=O)N[C@@H](CCC(=O)O)C(=O)N[C@@H](CCC(=O)O)C(=O)N[C@@H](C)C(=O)N[C@@H](CCC(=O)O)C(=O)N[C@@H](CC(C)C)C(=O)N[C@@H](CCC(=O)O)C(=O)N[C@@H](CCCNC(=N)N)C(=O)N[C@@H](CC(C)C)C(=O)N[C@@H](CCCCN)C(=O)N[C@@H](CO)C(=O)N[C@@H](CCC(=O)O)C(=O)N[C@@H](Cc1ccc(O)cc1)C(=O)O  helicity (circular dichroism; sodium phosphate; 30 µM, pH 7.4, room temperature): 19%
CC(C)C[C@H](NC=O)C(=O)N[C@@H](C)C(=O)N[C@@H](C)C(=O)N[C@@H](CC(=O)O)C(=O)N[C@@H](CC(C)C)C(=O)N[C@@H](CC(C)C)C(=O)N[C@@H](C)C(=O)N[C@@H](C)C(=O)N[C@@H](CC(C)C)C(=O)NCC(=O)N[C@@H](CC(=O)O)C(=O)N[C@@H](CC(C)C)C(=O)N[C@@H](CC(C)C)C(=O)N[C@@H](CCCCN)C(=O)N[C@@H](Cc1c[nH]c2ccccc12)C(=O)N[C@@H](CC(C)C)C(=O)N[C@@H](CC(C)C)C(=O)N[C@@H](CC(=O)O)C(=O)N[C@@H](C)C(=O)N[C@@H](CC(C)C)C(=O)N[C@@H](C)C(=O)N[C@@H](CCCCN)C(=O)N[C@@H](CC(C)C)C(=O)N[C@@H](C)C(=O)N[C@@H](CCCCN)C(=O)N[C@@H](CCCCN)C(=O)O (racemic)  helicity (circular dichroism; POPC vesicles 5 mM; 20 µM, fully membrane bound): 77%
CC[C@H](C)[C@H](NC(=O)[C@H](Cc1ccccc1)NC(=O)[C@H](CC(=O)O)NC(=O)[C@@H]1CCCNC(=O)NCC[C@H](NC(=O)[C@H](CC(C)C)NC(=O)[C@H](CCCNC(=N)N)NC(=O)[C@H](CCSC)NC(=O)[C@H](C)N)C(=O)N[C@@H](CCCCN)C(=O)N[C@@H](Cc2ccccc2)C(=O)N[C@@H](Cc2ccccc2)C(=O)N1)C(=O)N[C@@H](CC(C)C)C(=O)N[C@@H](CCC(N)=O)C(=O)N[C@@H](CCCNC(=N)N)C(=O)N[C@@H](CCCCN)C(=O)N[C@@H](CCCCN)C(=O)O  helicity (circular dichroism; 20% TFE in PBS; 200 µM, pH 7.4, 25 °C): 18.3%
CC[C@H](C)[C@H](NC(=O)[C@H](Cc1c[nH]c2ccccc12)NC(=O)[C@H](CCCCN)NC(=O)[C@@H](NC(=O)[C@H](CC(C)C)NC(=O)[C@H](CC(=O)O)NC(=O)CNC(=O)[C@@H](NC(=O)[C@@H](NC(=O)[C@H](CO)NC(=O)[C@@H](NC(=O)[C@@H](NC(=O)[C@H](CC(=O)O)NC(=O)[C@H](CCC(N)=O)NC(=O)[C@H](C)NC(=O)[C@H](CCSC)NC=O)[C@@H](C)CC)[C@@H](C)CC)[C@@H](C)O)[C@@H](C)CC)C(C)C)C(=O)N[C@H](C(=O)N[C@@H](CC(=O)O)C(=O)N[C@H](C(=O)N[C@H](C(=O)N[C@@H](CC(N)=O)C(=O)N[C@@H](CCCCN)C(=O)N[C@@H](Cc1ccccc1)C(=O)N[C@H](C(=O)N[C@@H](CCCCN)C(=O)N[C@@H](CCCCN)C(=O)O)[C@@H](C)O)C(C)C)[C@@H](C)O)[C@@H](C)CC  helicity (circular dichroism; phosphate buffer 10 mM; 1 to 5 µM, pH 7.5, approximate): 53%
CC(C)C[C@H](NC(=O)[C@H](CCC(=O)O)NC(=O)[C@H](C)NC(=O)[C@H](CCC(=O)O)NC(=O)[C@H](CCC(=O)O)NC(=O)[C@H](Cc1c[nH]cn1)NC(=O)[C@H](CCCNC(=N)N)NC(=O)[C@H](CCC(=O)O)NC(=O)[C@H](CC(N)=O)NC(=O)[C@H](CCCCN)NC(=O)[C@H](CC(C)C)NC(=O)[C@H](CCCNC(=N)N)NC(=O)[C@H](CCC(N)=O)NC(=O)[C@H](CC(C)C)NC(=O)[C@H](CCC(N)=O)NC(=O)[C@H](C)NC(=O)[C@H](CC(N)=O)NC(=O)[C@H](C)NC(=O)[C@@H](NC(=O)[C@H](CC(C)C)NC(=O)[C@H](CCCCN)NC(=O)[C@H](CCC(=O)O)NC(=O)[C@@H](NC(=O)[C@H](CO)NC(=O)CN)C(C)C)[C@@H](C)O)C(=O)N[C@@H](CCC(=O)O)C(=O)N[C@@H](CCCNC(=N)N)C(=O)N[C@@H](CC(C)C)C(=O)N[C@@H](CCCCN)C(=O)N[C@@H](CO)C(=O)N[C@@H](CCC(=O)O)C(=O)N[C@@H](Cc1ccc(O)cc1)C(=O)O  helicity (circular dichroism; sodium phosphate; 30 µM, pH 7.4, room temperature): 12%
CC(C)C[C@H](NC=O)C(=O)N[C@@H](C)C(=O)N[C@@H](C)C(=O)N[C@@H](CC(=O)O)C(=O)N[C@@H](CC(C)C)C(=O)N[C@@H](CC(C)C)C(=O)N[C@@H](C)C(=O)N[C@@H](C)C(=O)N[C@@H](CC(C)C)C(=O)NCC(=O)N[C@@H](CC(=O)O)C(=O)N[C@@H](CC(C)C)C(=O)N[C@@H](C)C(=O)N[C@@H](CCCCN)C(=O)N[C@@H](Cc1c[nH]c2ccccc12)C(=O)N[C@@H](CC(C)C)C(=O)N[C@@H](CC(C)C)C(=O)N[C@@H](CC(=O)O)C(=O)N[C@@H](C)C(=O)N[C@@H](CC(C)C)C(=O)N[C@@H](C)C(=O)N[C@@H](CCCCN)C(=O)N[C@@H](C)C(=O)N[C@@H](C)C(=O)N[C@@H](CCCCN)C(=O)N[C@@H](CCCCN)C(=O)O (racemic)  helicity (circular dichroism; POPC vesicles 5 mM; 20 µM, fully membrane bound): 54%
CC[C@H](C)[C@@H]1NC(=O)[C@H](Cc2ccccc2)NC(=O)[C@H](CC(=O)O)NC(=O)[C@H](CCCNC(=N)N)NC(=O)[C@H](Cc2ccccc2)NC(=O)[C@H](Cc2ccccc2)NC(=O)[C@@H](NC(=O)[C@H](CO)NC(=O)[C@H](CC(C)C)NC(=O)[C@H](CCCNC(=N)N)NC(=O)[C@H](CCSC)NC(=O)[C@H](C)N)CCCCNC(=O)NCCC[C@@H](C(=O)N[C@@H](CCC(N)=O)C(=O)N[C@@H](CCCNC(=N)N)C(=O)N[C@@H](CCCCN)C(=O)N[C@@H](CCCCN)C(=O)O)NC1=O  helicity (circular dichroism; 20% TFE in PBS; 200 µM, pH 7.4, 25 °C): 21.6%
CC[C@H](C)[C@H](NC(=O)[C@H](CCCNC(=N)N)NC(=O)CNC(=O)[C@H](CC(C)C)NC(=O)[C@H](CC(C)C)NC(=O)[C@H](CCCCN)NC(=O)[C@H](Cc1ccccc1)NC(=O)[C@H](C)N)C(=O)N[C@H](C(=O)N[C@@H](Cc1c[nH]cn1)C(=O)N[C@@H](Cc1c[nH]cn1)C(=O)N[C@H](C(=O)NCC(=O)N[C@@H](CC(N)=O)C(=O)N[C@@H](Cc1ccccc1)C(=O)N[C@H](C(=O)N[C@@H](Cc1ccc(O)c(O)c1)C(=O)NCC(=O)N[C@@H](Cc1ccccc1)C(=O)N[C@@H](CO)C(=O)N[C@@H](Cc1c[nH]cn1)C(=O)N[C@H](C(=O)N[C@@H](Cc1ccccc1)C(N)=O)C(C)C)C(C)C)C(C)C)[C@@H](C)CC  helicity (CD spectroscopy; 50% TFE; 50 µM): 21.6%
CC[C@H](C)[C@H](NC(=O)[C@H](Cc1ccccc1)NC(=O)[C@H](CC(=O)O)NC(=O)[C@H](CCCNC(=N)N)NC(=O)[C@H](Cc1ccccc1)NC(=O)[C@H](Cc1ccccc1)NC(=O)[C@H](CCCCN)NC(=O)[C@H](CO)NC(=O)[C@H](CC(C)C)NC(=O)[C@H](CCCNC(=N)N)NC(=O)[C@H](CCSC)NC(=O)[C@@H](N)CCC(=O)O)C(=O)N[C@@H](CC(C)C)C(=O)N[C@@H](CCC(N)=O)C(=O)N[C@@H](CCCNC(=N)N)C(=O)N[C@@H](CCCCN)C(=O)N[C@@H](CCCCN)C(=O)O  helicity (circular dichroism; 20% TFE in PBS; 200 µM, pH 7.4, 25 °C): 20%
CC[C@H](C)[C@H](NC(=O)[C@H](Cc1ccccc1)NC(=O)[C@H](CC(=O)O)NC(=O)[C@@H]1CCCNC(=O)NC[C@H](NC(=O)[C@H](CC(C)C)NC(=O)[C@H](CCCNC(=N)N)NC(=O)[C@H](CCSC)NC(=O)[C@H](C)N)C(=O)N[C@@H](CCCCN)C(=O)N[C@@H](Cc2ccccc2)C(=O)N[C@@H](Cc2ccccc2)C(=O)N1)C(=O)N[C@@H](CC(C)C)C(=O)N[C@@H](CCC(N)=O)C(=O)N[C@@H](CCCNC(=N)N)C(=O)N[C@@H](CCCCN)C(=O)N[C@@H](CCCCN)C(=O)O  helicity (circular dichroism; 20% TFE in PBS; 200 µM, pH 7.4, 25 °C): 17.2%

A few entries again:
CC(C)C[C@H](NC(=O)[C@H](CCC(=O)O)NC(=O)[C@H](C)NC(=O)[C@H](CCC(=O)O)NC(=O)[C@H](CCC(=O)O)NC(=O)[C@H](Cc1c[nH]cn1)NC(=O)[C@H](CCCNC(=N)N)NC(=O)[C@H](CCC(=O)O)NC(=O)[C@H](CC(N)=O)NC(=O)[C@H](CCCCN)NC(=O)[C@H](CC(C)C)NC(=O)[C@H](CCCNC(=N)N)NC(=O)[C@H](CCC(N)=O)NC(=O)[C@H](CC(C)C)NC(=O)[C@H](CCC(N)=O)NC(=O)[C@H](C)NC(=O)[C@H](CC(N)=O)NC(=O)[C@H](C)NC(=O)[C@@H](NC(=O)[C@H](CC(C)C)NC(=O)[C@H](CCCCN)NC(=O)[C@H](CCC(=O)O)NC(=O)[C@@H](NC(=O)[C@H](CO)NC(=O)CN)C(C)C)[C@@H](C)O)C(=O)N[C@@H](CCC(=O)O)C(=O)N[C@@H](CCCNC(=N)N)C(=O)N[C@@H](CC(C)C)C(=O)N[C@@H](CCCCN)C(=O)N[C@@H](CO)C(=O)N[C@@H](CCC(=O)O)C(=O)N[C@@H](Cc1ccc(O)cc1)C(=O)O  helicity (circular dichroism; sodium phosphate; 30 µM, pH 7.4, room temperature): 12%
